Measurements of several laboratories.
Protocols differ between the studies behind these lines.
Target: Calcium/calmodulin-dependent protein kinase type IV (CAMK4, Homo sapiens, UniProt Q16566)
Residues used in one study (Q16566 1-473): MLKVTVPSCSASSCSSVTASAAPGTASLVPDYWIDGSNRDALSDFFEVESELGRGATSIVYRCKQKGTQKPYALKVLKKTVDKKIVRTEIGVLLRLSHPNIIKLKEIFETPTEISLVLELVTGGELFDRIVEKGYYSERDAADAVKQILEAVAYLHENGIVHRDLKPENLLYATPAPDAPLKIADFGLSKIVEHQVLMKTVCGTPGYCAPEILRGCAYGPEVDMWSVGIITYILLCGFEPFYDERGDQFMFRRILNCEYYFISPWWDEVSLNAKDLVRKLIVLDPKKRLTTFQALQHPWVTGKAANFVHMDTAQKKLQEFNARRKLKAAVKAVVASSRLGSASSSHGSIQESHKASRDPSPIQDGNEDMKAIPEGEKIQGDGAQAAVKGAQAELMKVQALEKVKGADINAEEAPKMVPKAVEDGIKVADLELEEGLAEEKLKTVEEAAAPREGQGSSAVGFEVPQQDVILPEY

The remaining binding of CNC1C[S+]2CC[S+]3CC[S+](C1)[Ru-4]321([N]=C=S)[n]2c3ccc(OC)cc3c3c4c(c5cc(F)c[n+]1c5c32)C(=O)NC4=O (stereo not shown) is reported as 15% (KinomeScan; 0.1 µM; reference: untreated).
COc1c(OCCCN2CCOCC2)ccc2c1N=C(NC(=O)c1cnc(N)nc1)N1CCN=C21 has a remaining activity of 105% (kinase activity, inhibitor; 1 µM; reference: untreated control).
With CC(C)=CC1OC(C)(C)C2C=C3C(=O)C(Cl)=CC(O)C3C3C(O)C4OC4C(=O)C132 (stereo not shown) the remaining binding was 99% (cell-free assay, competition with immobilised ligand; 10 µM).
For CNC(=O)C[C@H](Cc1ccc(C#N)cc1)NC(=O)c1cc(-c2ccc(CN[C@H](C)c3ccc(C)cc3)o2)ccc1Cl, “activity vs control” read 112% (enzyme activity, inhibitor; 1 µM).
CNC(=O)C1CCN(c2cc(C)c(F)cc2NC(=O)c2ccc(-c3cc(O)ccc3C)c(C)c2)CC1 gave a remaining binding of 100% (binding, competition with immobilised ligand; 1 µM).
For Cc1ccc(-c2c(/C=C(\C#N)C(=O)NC(C)C)n(CCCO)c3ncnc(N)c23)cc1, the remaining binding was 100% (cell-free assay, competition with immobilised ligand; 1 µM).
For CCN1CCN(Cc2ccc(C(=O)Nc3ccc(C)c(NCc4cnc5[nH]ccc5c4OC)c3)cc2C(F)(F)F)CC1, the remaining binding was 100% (binding, competition with immobilised ligand; 1 µM).
For C=CC(=O)Nc1cccc(-c2cnc3[nH]cc(C(=O)NC(C)(C)C)c3n2)c1, the inhibition was 1% (enzyme activity, inhibitor; 0.1 µM).
NC(=O)[C@@H](O)C[C@H]1CCc2sc3ncnc(O[C@H]4CC[C@H](N5CCOCC5)CC4)c3c21 has an inhibition of 0% (enzyme activity, inhibitor; 10 µM).
O=c1c(-c2ccc(Cl)c(CN3CCOCC3)c2)coc2cc(O)ccc12 gave a remaining activity of 97% (enzyme activity, inhibitor; 1 µM).
Nc1ncc2c(n1)-c1c([nH]c3ccc(C4=CCOCC4)cc13)CCC2 has a remaining binding of 100% (binding, competition with immobilised ligand; 1 µM).
For Nc1ncc(-c2cc(-c3cnn(CC(F)(F)F)c3)ncc2F)nc1C(=O)NC1CNCC(F)C1 (stereo not shown), the remaining activity was 98.3% (enzyme activity; 1 µM; reference: DMSO control).
With Cc1nc2c(F)cc(-c3nc(Nc4ccc(CNC(=O)CCCCCCC(=O)NO)cc4)ncc3F)cc2n1C(C)C the inhibition was 65% (enzyme activity, inhibitor; 1 µM).
For O=C(Cc1ccc(OCc2ccccc2)cc1)NC1(C(=O)O)CCN(C(=O)c2ccc(-c3cccc(Cl)c3)cc2)CC1, “activity vs control” read 120% (enzyme activity, inhibitor; 10 µM).
The inhibition of Cc1cccc(O[C@H]2CCC[C@@H](C(C)CNCc3ccncc3)C2)c1 (relative stereo) is reported as 0% (enzyme activity, inhibitor; 1 µM).
The remaining binding of COc1cc(Nc2nccc(-c3cnn4nc(OC)ccc34)n2)cc(C(F)(F)F)c1 is reported as 100% (binding, competition with immobilised ligand; 1 µM).
